Assay results collected from several papers.
Compare with care: the assays were run in different laboratories. “And” joins repeats or separate records; there may be more than shown. Numbers after ± are the reported error.

CNCc1ccc(-c2[nH]c3cc(F)cc4c3c2CCNC4=O)cc1
patients with adverse event (refers to: Constipation; human patients; oral, 600 mg twice daily, grade 3): 0%

Cl.[2H]C([2H])([2H])CC(=O)c1cnc(NC(=O)C2CC2)cc1Nc1cccc(-c2ncn(C([2H])([2H])[2H])n2)c1OC
CL/F (geometric mean; human; 10 mg single dose, fasted, liquid): 12.3 L/h

CC(C)(C)c1ccc([C@H]2COC[C@H](C3CCCCC3)N2)cc1
logD (shake-flask, 1-octanol/buffer; pH 7.4): > 4.7

Cc1cn(-c2cc(NC(=O)c3ccc(C)c(Nc4nccc(-c5cccnc5)n4)c3)cc(C(F)(F)F)c2)cn1
absorption duration (D1) (human, both sexes, plasma; oral, population PK model, typical value): 2.32 h

CC[C@H](C)[C@H](NC(=O)[C@H](Cc1ccccc1)NC(=O)[C@H](CCC(=O)O)NC(=O)[C@H](CCCCNC(=O)COCCOCCNC(=O)COCCOCCNC(=O)CC[C@H](NC(=O)CCCCCCCCCCCCCCCCC(=O)O)C(=O)O)NC(=O)[C@H](C)NC(=O)[C@H](C)NC(=O)[C@H](CCC(N)=O)NC(=O)CNC(=O)[C@H](CCC(=O)O)NC(=O)[C@H](CC(C)C)NC(=O)[C@H](Cc1ccc(O)cc1)NC(=O)[C@H](CO)NC(=O)[C@H](CO)NC(=O)[C@@H](NC(=O)[C@H](CC(=O)O)NC(=O)[C@H](CO)NC(=O)[C@@H](NC(=O)[C@H](Cc1ccccc1)NC(=O)[C@@H](NC(=O)CNC(=O)[C@H](CCC(=O)O)NC(=O)C(C)(C)NC(=O)[C@@H](N)Cc1cnc[nH]1)[C@@H](C)O)[C@@H](C)O)C(C)C)C(=O)N[C@@H](C)C(=O)N[C@@H](Cc1c[nH]c2ccccc12)C(=O)N[C@@H](CC(C)C)C(=O)N[C@H](C(=O)N[C@@H](CCCNC(=N)N)C(=O)NCC(=O)N[C@@H](CCCNC(=N)N)C(=O)NCC(=O)O)C(C)C
QTcF change from baseline (12-lead Holter ECG; healthy humans; subcutaneous, 1.5 mg once weekly, 26 h, steady state; baseline: placebo): -1.3 ms

O=C1c2ccccc2C(=O)N1CCCc1nc(-c2cccc([N+](=O)[O-])c2)no1
logD (octanol/buffer; pH 7.4): 3.21

Cc1c(Cl)c(C)[n+]([O-])c(Cl)c1-c1noc(-c2cc(O)c(O)c([N+](=O)[O-])c2)n1
subjects with any TEAE (healthy subjects; oral, dose not given, all subjects): 24.3%

O=C(O)CN1CCCN2CCN(Cc3ccccc3)CCCN(CC1)Cc1cccc(n1)C2
intact complex (64Cu complex in rat plasma; 24 h, 37 °C): 98%

FC(F)(F)c1ccc(CNc2ccc(Cc3c[nH]c4ncc(Cl)cc34)cn2)cn1
treatment-related adverse events (refers to: Hypertension; patients with advanced solid tumours, all cohorts; oral, 1000 mg/day, any grade): 6%

C[C@@H]1CCO[C@H]2Cn3cc(C(=O)NCc4ccc(F)cc4F)c(=O)c(O)c3C(=O)N12
AUC(0-24) (population PK, post-hoc; children, 20 to <25 kg, plasma; oral, 22.4 mg granules, steady state, geometric mean): 61600 ng·h/mL

Oc1ccc(/C=C/c2cc(O)cc(O)c2)cc1
total protein (rat, azoxymethane-injected, blood at sacrifice; 10 mg/kg): 6.6 g/dL and 6.5 g/dL

C=CC(=O)NC1CCN(c2ncc3ncnc(Nc4ccc(Oc5ccc6c(c5)ncn6C)c(C)c4)c3n2)CC1
subjects with adverse events (healthy male volunteers; intravenous then oral, dose not given, at least 1 treatment-emergent event): 29%

CC(=O)N=S(=O)(O)c1ccc(N/C=C2\C(=O)Nc3ccc4ncsc4c32)cc1
logD (octanol/buffer; 67 µM, pH 7.4): 0.97

Cc1ccc([C@@H]2O[C@H](CO)[C@@H](O)[C@H](O)[C@H]2O)cc1Cc1ccc(-c2ccc(F)cc2)s1
urinary magnesium excretion change (Japanese type 2 diabetes patients; 25 mg, day 15, 24 h urine collection; baseline: baseline): 9.29 mg

O=c1cc(-c2ccc(O)cc2)oc2c([C@@H]3OC[C@H](O)[C@H](O)[C@H]3O)c(O)c([C@@H]3O[C@H](CO)[C@@H](O)[C@H](O)[C@H]3O)c(O)c12
tissue concentration (UHPLC-MS/MS; C57BL/6J mouse, lungs; oral, dose not given): 0.82 ng/g

CC(C)C[C@H](NC(=O)[C@@H](Cc1c[nH]c2ccccc12)NC(=O)[C@H](Cc1ccc(O)cc1)NC(=O)[C@H](CO)NC(=O)[C@H](Cc1c[nH]c2ccccc12)NC(=O)[C@H](Cc1c[nH]cn1)NC(=O)[C@@H]1CCC(=O)N1)C(=O)N[C@@H](CCCNC(=N)N)C(=O)N1CCC[C@H]1C(=O)NCC(N)=O
patients, serious adverse events (Chinese CPP children, girls; intramuscular, 22.5 mg, 12 months, day 1, month 6): 0%

O=C(OC(C(F)(F)F)C(F)(F)F)N1CCN(Cc2cccc(Oc3ccccc3)c2)CC1
k2 (PET blocking study; rhesus monkey, brain OCC; 0.1 mg/kg, compound pretreatment, together with: [18F]T-401 tracer): 0.064 min⁻¹

CN1CCCC1CCNS(=O)(=O)c1ccc2c(c1)CN(CC1CCCCC1)CC2 (stereo not drawn)
Cmin (wild-type mouse, plasma; oral in diet, 0.002% in diet, 6 months): 1.77 ng/mL

CC1CCN(S(=O)(=O)c2ccc(Cl)c(C(=O)Nc3ccc(C(=O)O)cc3)c2)CC1
logD (octanol/buffer; pH 7.4): 0.82

CNC(=O)c1ccc(-c2cnc3ncc(Cc4ccc5ncccc5c4)n3n2)cc1F
Hypokalaemia dose reduction/interruption (Japanese patients; oral, 400 mg, grade 3/4): 1%

CC[C@H](C)CCCCC(=O)N[C@@H](CCN)C(=O)N[C@H](C(=O)N[C@@H](CCN)C(=O)N[C@H]1CCNC(=O)[C@H]([C@@H](C)O)NC(=O)[C@H](CCN)NC(=O)[C@H](CCN)NC(=O)[C@H](CC(C)C)NC(=O)[C@@H](Cc2ccccc2)NC(=O)[C@H](CCN)NC1=O)[C@@H](C)O
cumulative urinary excretion (LC-MS/MS; normal renal function subjects, urine; IV, 0.75 mg/kg, 0-6 h, arithmetic mean): 0.884 mg

O=C(c1cc2cccnc2n1-c1ccc(Cl)c(Cl)c1)N1CC(F)(F)C1
hepatocyte share of uptake (mouse, perfused liver; 5 mg/kg, 30 min): ~99%

CCOC(=O)N1C[C@@H](c2ccc(C(C)(C)C)cc2)N[C@@H](c2ccc(N3CCCC3)cc2)C1
logD (shake-flask, 1-octanol/buffer; pH 7.4): > 4.7

CC(C)c1c(C(=O)Nc2ccc(O)cc2)c(-c2ccccc2)c(-c2ccc(F)cc2)n1CC[C@@H]1C[C@@H](O)CC(=O)O1
chromatographic hydrophobicity index (reverse phase LC, C18; acetonitrile gradient, 0.1% formic acid; converted from retention time; baseline: Valko CHI standards): 85.6

c1coc(Nc2ncnc3ccc(-c4cncc(N5CCOCC5)n4)cc23)n1
CLint (human liver microsomes): 300 µL/min/mg

C[C@@H](N)C1CCN(S(=O)(=O)c2cccc3cnccc23)CC1
participants with serious TEAEs (healthy volunteers; 150 mg single dose, fed): 0%

Clc1ccc([C@@H]2COC[C@@H](c3cc(Cl)cc(Cl)c3)N2)cc1
logD (shake-flask, 1-octanol/buffer; pH 7.4): > 4.7

O=C(O)CCCOc1ccc([18F])cc1-c1cc(-c2ccccc2C(F)(F)F)n(-c2ccccc2)n1
radioactivity uptake (gamma counting; male ddY mice, lung; intravenous, 2.1 MBq, 30 min): 0.38 ± 0.1 SUV

CN(C)C/C=C/C(=O)Nc1cc2c(Nc3ccc(F)c(Cl)c3)ncnc2cc1O[C@H]1CCOC1
efflux ratio (EpiIntestinal tissue model; 300 µM, 3 h, pH 7.4): 1 ± 0.2

O=C(Nc1nc2cccc(-c3ccc(CN4CCS(=O)(=O)CC4)cc3)n2n1)C1CC1
treatment-emergent adverse events (refers to: blood amylase increased; rheumatoid arthritis patients; oral, 75 mg once daily, 4 weeks, any relatedness): 0%

CC(C)[C@@H](CS(=O)(=O)C(C)C)N1C(=O)[C@@](C)(CC(=O)O)C[C@H](c2cccc(Cl)c2)[C@H]1c1ccc(Cl)cc1
brain to plasma ratio (FVB Abcb1a/b-/- Abcg2-/- mice; intravenous, 20 mg/kg): 0.319

Cc1cc(NC2CCN(C(=O)OC3CCN(C(=O)/C=C/CN(C)C)C3)CC2)n2ncc(C(C)C)c2n1 (stereo not drawn)
patients with Fatigue (patients with advanced solid tumours; dose not given, QD arm, grade 3 or higher): 2%

NC(=O)N1c2ccccc2C=Cc2ccccc21
adverse events incidence (refers to: GGT increased; human male; oral, dose not given, CTCAE on-treatment AEs): 7%

C[C@@H](c1ncncc1F)[C@](O)(Cn1cncn1)c1ccc(F)cc1F
grade 3-4 TEAE (human; oral, 400 mg, drug interaction trial): 0%

COc1cc2nccc(Oc3ccc(NC(=O)NC4CC4)c(Cl)c3)c2cc1C(N)=O
Km (rat liver microsomes; 30 min, pH 7.4): 20.7 µM

CCOc1c([C@H](C)n2nc(C)c3c(N)ncnc32)cc(Cl)c(F)c1[C@@H]1CNC(=O)C1
observations ΔQTcF >30 ≤60 ms (ECG; previously treated B-cell malignancy patients; oral, 15 mg once daily, baseline QTcF ≤450 ms): 0%

COc1cc(N2CCC3(CCN(C)CC3)CC2)ccc1Nc1ncc(Cl)c(Nc2ccccc2P(C)(C)=O)n1
absorption lag time (population PK model; human; oral, fed subjects): 0.472 h

COc1cc2c(cc1OC)CN(CCc1ccc(NC(=O)c3cccc4c(=O)c5cccc(OC)c5[nH]c34)cc1)CC2
free plasma concentration (Sprague Dawley rats, plasma; iv infusion, 0.009 mg/h/kg, 4 h): 0.02 ng/mL

CN(CCC(=O)O)C(=O)c1ccc2c(c1)CC[C@@H]1[C@@H]2CC[C@]2(C)C(c3cncc(F)c3)=CC[C@@H]12
total bilirubin change (premenopausal women, endometriosis pain, serum; 60 mg twice daily, visit 6, mean; baseline: baseline): 0.682 mg/dL

CCN1/C(=C/C(C)=O)Sc2ccc(F)cc21
QT interval (cynomolgus monkey; oral, 10 mg/kg, 24 h post-dose): 261 ± 12 ms

CCn1cc(C(=O)N2CCOCC2)c(=O)c2cc(NC3Cc4ccccc4C3)cnc21
Tmax (human, fed; oral suspension, 300 mg/day twice daily, day 1, median): 4 h

Cc1cc(-c2nccc3c2ccn3CC(=O)Nc2ccc(-c3cnccn3)cn2)ccn1
subjects with skin abrasion TEAEs (human; MAD part, 20 mg once daily): 11.1%

C#C[C@]1(O)CC[C@H]2[C@@H]3CCc4cc(O)ccc4[C@H]3CC[C@@]21C
intrinsic clearance (substrate depletion; Sprague-Dawley rat, female, liver S9; 3 µM, pH 7.4): 65.2 µL/min/mg

O=C(Nc1cnccc1Cl)N1CCN(Cc2ccc3c(c2)OC(F)(F)O3)CC1
adverse event incidence (refers to: Somnolence; human healthy young men; 10 mg, multiple dose): 0%

CC(C)(C(=O)N1CCOc2c(C#N)cncc2C1)C(F)F
subjects with adverse event (refers to: Palpitations; human; oral, 10 mg once daily, 14 days, multiple ascending dose): 0%

Excerpt of the above:
CNCc1ccc(-c2[nH]c3cc(F)cc4c3c2CCNC4=O)cc1
patients with adverse event (refers to: Constipation; human patients; oral, 600 mg twice daily, grade 3): 0%

C[C@@H](c1ncncc1F)[C@](O)(Cn1cncn1)c1ccc(F)cc1F
grade 3-4 TEAE (human; oral, 400 mg, drug interaction trial): 0%

CC[C@H](C)[C@H](NC(=O)[C@H](Cc1ccccc1)NC(=O)[C@H](CCC(=O)O)NC(=O)[C@H](CCCCNC(=O)COCCOCCNC(=O)COCCOCCNC(=O)CC[C@H](NC(=O)CCCCCCCCCCCCCCCCC(=O)O)C(=O)O)NC(=O)[C@H](C)NC(=O)[C@H](C)NC(=O)[C@H](CCC(N)=O)NC(=O)CNC(=O)[C@H](CCC(=O)O)NC(=O)[C@H](CC(C)C)NC(=O)[C@H](Cc1ccc(O)cc1)NC(=O)[C@H](CO)NC(=O)[C@H](CO)NC(=O)[C@@H](NC(=O)[C@H](CC(=O)O)NC(=O)[C@H](CO)NC(=O)[C@@H](NC(=O)[C@H](Cc1ccccc1)NC(=O)[C@@H](NC(=O)CNC(=O)[C@H](CCC(=O)O)NC(=O)C(C)(C)NC(=O)[C@@H](N)Cc1cnc[nH]1)[C@@H](C)O)[C@@H](C)O)C(C)C)C(=O)N[C@@H](C)C(=O)N[C@@H](Cc1c[nH]c2ccccc12)C(=O)N[C@@H](CC(C)C)C(=O)N[C@H](C(=O)N[C@@H](CCCNC(=N)N)C(=O)NCC(=O)N[C@@H](CCCNC(=N)N)C(=O)NCC(=O)O)C(C)C
QTcF change from baseline (12-lead Holter ECG; healthy humans; subcutaneous, 1.5 mg once weekly, 26 h, steady state; baseline: placebo): -1.3 ms

O=C(Nc1nc2cccc(-c3ccc(CN4CCS(=O)(=O)CC4)cc3)n2n1)C1CC1
treatment-emergent adverse events (refers to: blood amylase increased; rheumatoid arthritis patients; oral, 75 mg once daily, 4 weeks, any relatedness): 0%

CNC(=O)c1ccc(-c2cnc3ncc(Cc4ccc5ncccc5c4)n3n2)cc1F
Hypokalaemia dose reduction/interruption (Japanese patients; oral, 400 mg, grade 3/4): 1%
